Assay results gathered from unrelated publications.
Each line is one published result; not all experiments were run side by side. ± gives the spread as reported.
BACE1: Beta-secretase 1 (BACE1, Homo sapiens, UniProt P56817)
Chain of UniProt P56817 (whole entry, looked up): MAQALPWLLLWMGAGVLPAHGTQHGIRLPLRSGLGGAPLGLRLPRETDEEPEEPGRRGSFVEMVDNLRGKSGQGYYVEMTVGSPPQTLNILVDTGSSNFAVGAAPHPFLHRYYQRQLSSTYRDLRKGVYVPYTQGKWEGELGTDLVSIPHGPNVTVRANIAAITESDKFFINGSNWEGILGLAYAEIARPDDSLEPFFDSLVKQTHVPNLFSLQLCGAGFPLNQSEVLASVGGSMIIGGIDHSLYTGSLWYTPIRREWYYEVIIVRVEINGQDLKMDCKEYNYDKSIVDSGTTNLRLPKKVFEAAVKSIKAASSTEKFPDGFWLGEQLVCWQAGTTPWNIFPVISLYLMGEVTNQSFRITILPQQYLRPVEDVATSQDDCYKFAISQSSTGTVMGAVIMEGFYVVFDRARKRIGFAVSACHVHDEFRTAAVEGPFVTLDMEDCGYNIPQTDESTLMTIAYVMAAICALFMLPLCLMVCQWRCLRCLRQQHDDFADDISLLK
HDAC1: Histone deacetylase 1 (HDAC1, Homo sapiens, UniProt Q13547)
Chain of UniProt Q13547 (whole entry, looked up): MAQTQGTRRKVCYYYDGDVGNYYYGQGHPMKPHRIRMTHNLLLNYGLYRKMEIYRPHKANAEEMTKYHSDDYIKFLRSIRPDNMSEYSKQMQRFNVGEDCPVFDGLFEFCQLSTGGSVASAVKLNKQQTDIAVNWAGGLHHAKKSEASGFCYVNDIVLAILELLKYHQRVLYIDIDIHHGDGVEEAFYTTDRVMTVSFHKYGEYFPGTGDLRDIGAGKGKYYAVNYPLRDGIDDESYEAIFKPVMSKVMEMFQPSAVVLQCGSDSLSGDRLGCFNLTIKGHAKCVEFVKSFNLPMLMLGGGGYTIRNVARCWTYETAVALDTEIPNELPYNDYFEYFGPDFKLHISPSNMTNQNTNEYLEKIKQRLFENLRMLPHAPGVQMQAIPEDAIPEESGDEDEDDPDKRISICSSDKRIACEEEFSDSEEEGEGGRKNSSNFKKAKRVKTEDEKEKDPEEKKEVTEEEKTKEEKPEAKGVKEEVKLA
ALPI: Intestinal-type alkaline phosphatase (ALPI, Bos taurus, UniProt P19111)
Chain of UniProt P19111 (whole entry, looked up): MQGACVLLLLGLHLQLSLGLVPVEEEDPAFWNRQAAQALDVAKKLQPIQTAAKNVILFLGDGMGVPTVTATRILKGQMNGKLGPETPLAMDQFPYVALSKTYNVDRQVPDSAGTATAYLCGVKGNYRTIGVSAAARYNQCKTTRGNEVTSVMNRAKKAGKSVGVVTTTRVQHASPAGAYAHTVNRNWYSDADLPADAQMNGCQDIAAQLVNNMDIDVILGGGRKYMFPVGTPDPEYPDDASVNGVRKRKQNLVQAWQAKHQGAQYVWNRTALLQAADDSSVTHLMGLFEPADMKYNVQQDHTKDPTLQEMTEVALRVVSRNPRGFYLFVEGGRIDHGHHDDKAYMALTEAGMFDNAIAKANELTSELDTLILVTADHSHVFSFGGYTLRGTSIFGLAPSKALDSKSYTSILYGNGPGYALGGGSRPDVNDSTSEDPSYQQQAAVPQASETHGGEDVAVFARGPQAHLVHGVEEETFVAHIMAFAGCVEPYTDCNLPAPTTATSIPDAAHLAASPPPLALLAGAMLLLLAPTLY
EGLN1: Egl nine homolog 1 (EGLN1, Homo sapiens, UniProt Q9GZT9)
Chain of UniProt Q9GZT9 (whole entry, looked up): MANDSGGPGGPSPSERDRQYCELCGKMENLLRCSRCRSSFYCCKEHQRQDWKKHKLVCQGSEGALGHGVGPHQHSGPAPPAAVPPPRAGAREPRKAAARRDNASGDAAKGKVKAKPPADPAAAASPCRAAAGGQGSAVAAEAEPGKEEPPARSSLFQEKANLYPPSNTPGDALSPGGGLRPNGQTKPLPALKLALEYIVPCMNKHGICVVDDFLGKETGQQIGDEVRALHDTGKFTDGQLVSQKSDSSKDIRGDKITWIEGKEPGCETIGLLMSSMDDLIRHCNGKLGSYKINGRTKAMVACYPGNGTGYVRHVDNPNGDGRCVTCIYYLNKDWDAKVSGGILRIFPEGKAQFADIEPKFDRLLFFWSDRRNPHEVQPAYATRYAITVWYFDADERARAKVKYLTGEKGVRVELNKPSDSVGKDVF
Grik2: Glutamate receptor ionotropic, kainate 2 (Grik2, Rattus norvegicus, UniProt P42260)
Chain of UniProt P42260 (whole entry, looked up): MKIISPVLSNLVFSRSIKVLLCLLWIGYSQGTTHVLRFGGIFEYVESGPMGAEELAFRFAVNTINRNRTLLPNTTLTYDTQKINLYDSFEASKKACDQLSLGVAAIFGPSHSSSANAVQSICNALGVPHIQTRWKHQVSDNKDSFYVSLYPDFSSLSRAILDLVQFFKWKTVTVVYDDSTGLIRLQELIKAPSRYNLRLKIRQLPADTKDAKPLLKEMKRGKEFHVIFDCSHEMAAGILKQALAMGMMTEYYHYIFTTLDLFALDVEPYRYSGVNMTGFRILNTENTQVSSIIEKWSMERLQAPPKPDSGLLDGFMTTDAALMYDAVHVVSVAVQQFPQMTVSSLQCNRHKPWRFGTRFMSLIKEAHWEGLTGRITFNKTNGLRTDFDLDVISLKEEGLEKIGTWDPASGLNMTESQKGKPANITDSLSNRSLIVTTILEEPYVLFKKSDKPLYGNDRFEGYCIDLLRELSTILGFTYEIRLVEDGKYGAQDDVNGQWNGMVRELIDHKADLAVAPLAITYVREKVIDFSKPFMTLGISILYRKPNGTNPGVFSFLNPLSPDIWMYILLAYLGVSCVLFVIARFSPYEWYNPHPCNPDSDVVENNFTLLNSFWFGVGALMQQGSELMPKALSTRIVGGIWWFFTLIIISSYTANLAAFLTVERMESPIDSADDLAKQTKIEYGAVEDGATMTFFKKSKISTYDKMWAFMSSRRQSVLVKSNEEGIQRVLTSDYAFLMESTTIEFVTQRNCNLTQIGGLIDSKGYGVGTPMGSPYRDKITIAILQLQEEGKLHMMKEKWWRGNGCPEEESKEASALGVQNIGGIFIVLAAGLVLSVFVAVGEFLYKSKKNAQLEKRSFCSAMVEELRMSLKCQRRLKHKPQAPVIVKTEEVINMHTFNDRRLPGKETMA
Kir3.1/Kir3.2: Kir3.1/Kir3.2 (Homo sapiens, UniProt P48051+P48549)
Chain of UniProt P48549 (whole entry, looked up): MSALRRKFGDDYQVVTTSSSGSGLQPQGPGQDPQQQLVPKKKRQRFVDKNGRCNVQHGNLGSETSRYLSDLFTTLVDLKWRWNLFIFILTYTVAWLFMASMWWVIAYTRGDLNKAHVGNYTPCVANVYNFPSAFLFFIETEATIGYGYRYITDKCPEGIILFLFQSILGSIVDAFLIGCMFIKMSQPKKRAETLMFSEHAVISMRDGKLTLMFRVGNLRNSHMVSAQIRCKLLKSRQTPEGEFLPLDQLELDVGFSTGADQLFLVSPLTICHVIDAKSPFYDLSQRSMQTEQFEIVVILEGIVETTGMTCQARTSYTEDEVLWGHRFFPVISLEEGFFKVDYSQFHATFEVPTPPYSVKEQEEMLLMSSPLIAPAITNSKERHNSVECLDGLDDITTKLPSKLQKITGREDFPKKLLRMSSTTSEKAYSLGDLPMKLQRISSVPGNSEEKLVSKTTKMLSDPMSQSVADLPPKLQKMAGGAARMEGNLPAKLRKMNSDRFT
Chain of UniProt P48051 (whole entry, looked up): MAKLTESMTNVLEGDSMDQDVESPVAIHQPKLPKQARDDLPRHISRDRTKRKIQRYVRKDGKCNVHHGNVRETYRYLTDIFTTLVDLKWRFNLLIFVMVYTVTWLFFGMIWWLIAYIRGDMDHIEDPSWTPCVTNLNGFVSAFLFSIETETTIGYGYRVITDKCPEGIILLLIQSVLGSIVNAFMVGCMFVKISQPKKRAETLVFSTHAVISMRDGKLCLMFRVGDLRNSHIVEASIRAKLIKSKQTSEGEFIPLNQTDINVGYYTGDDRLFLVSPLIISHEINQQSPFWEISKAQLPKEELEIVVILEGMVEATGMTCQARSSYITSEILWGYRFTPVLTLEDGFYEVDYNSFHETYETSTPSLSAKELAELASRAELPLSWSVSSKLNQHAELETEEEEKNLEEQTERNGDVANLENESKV
Ephx2: Bifunctional epoxide hydrolase 2 (Ephx2, Mus musculus, UniProt P34914)
Chain of UniProt P34914 (whole entry, looked up): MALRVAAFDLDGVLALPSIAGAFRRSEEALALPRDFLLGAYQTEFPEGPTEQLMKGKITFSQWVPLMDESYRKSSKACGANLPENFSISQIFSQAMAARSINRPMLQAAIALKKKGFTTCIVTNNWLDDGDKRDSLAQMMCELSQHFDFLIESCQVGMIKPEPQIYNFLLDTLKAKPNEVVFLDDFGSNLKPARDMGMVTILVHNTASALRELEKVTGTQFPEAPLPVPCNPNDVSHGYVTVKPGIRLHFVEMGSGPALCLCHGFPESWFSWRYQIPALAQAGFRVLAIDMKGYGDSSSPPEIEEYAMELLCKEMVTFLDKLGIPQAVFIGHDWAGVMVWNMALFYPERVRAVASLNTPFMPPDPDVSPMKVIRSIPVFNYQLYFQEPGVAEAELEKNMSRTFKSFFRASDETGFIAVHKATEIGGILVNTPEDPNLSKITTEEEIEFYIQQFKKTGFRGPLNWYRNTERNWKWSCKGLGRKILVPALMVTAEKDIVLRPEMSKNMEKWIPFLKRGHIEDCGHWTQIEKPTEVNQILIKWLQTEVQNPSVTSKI
Chain of UniProt C7FF04 (whole entry, looked up): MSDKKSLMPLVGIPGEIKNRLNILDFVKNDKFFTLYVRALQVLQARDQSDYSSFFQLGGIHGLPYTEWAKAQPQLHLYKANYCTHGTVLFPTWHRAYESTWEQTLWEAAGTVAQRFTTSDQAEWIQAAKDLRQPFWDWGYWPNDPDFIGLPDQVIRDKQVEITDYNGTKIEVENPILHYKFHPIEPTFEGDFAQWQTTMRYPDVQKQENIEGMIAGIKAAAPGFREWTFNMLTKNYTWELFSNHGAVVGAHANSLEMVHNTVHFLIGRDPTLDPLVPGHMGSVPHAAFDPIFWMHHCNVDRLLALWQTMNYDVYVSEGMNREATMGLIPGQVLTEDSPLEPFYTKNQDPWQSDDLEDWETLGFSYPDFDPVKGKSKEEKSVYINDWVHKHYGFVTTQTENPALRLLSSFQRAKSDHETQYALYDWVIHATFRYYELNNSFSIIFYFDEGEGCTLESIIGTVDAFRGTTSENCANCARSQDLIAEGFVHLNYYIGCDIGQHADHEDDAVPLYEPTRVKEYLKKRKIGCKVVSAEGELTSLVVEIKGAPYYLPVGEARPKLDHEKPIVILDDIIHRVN

Substance | target | test | test system | setting | IC50 [µM]
CCN(c1ccc(OC)cc1)S(=O)(=O)C1CC2OC1C(c1ccc(O)cc1)=C2c1ccc(O)cc1 (stereo not shown) | Estrogen receptor beta (ESR2, Homo sapiens, UniProt Q92731) | reporter gene, antagonist, luciferase | – | – | 0.37
CN1CCc2ccccc2C1Cc1ccccc1NC(=O)c1sc2ccccc2c1Cl (stereo not shown) | BACE1 | enzyme activity, inhibitor, FRET | – | pH 4.5 | 67.6
O=C(NO)c1ccc(Cn2c(C(F)(F)F)nc3ccccc32)cc1 | HDAC1 | enzyme activity, inhibitor | – | – | 6.34
C[C@@H](O)[C@@H](O)[C@@H](O)[C@H](O)C(=O)CO | 3-dehydroquinate synthase, chloroplastic (DHQS, Arabidopsis thaliana, UniProt Q8VYV7) | enzyme activity, inhibitor, malachite green phosphate release | – | 29 °C | 144
CSc1nnc2[nH]nc(C)c2n1 | deoD (Escherichia coli, UniProt P0ABP8) | phosphorolysis, inhibitor | – | pH 7.0, 25 °C, with: 7-methylguanosine 32 µM, phosphate 50 mM | ~40
COc1ccc(N2CC3=C(C2=O)C(c2ccccc2O)NC(=O)N3)cc1 (stereo not shown) | ALPI | enzyme activity, inhibitor, absorbance | – | pH 9.5 | 4.88
NCCOB(c1ccccc1)c1ccccc1 | Transient receptor potential cation channel subfamily M member 7 (TRPM7, Homo sapiens, UniProt Q96QT4) | ion current, inhibitor, whole-cell patch clamp | – | Mg2+-free internal solution | 32.1 ± 0.1
CCCC[C@H](NC(=O)CNC(=O)[C@H](CCCCN)NC(=O)[C@@H](NC(=O)[C@H](CCC(=O)O)NC(=O)CNC(=O)[C@H](CCCNC(=N)N)NC(=O)[C@@H]1CCCN1C(=O)[C@H](CCCCN)NC(=O)[C@@H](N)CCCCN)[C@@H](C)O)C(=O)N[C@H](C(=O)N[C@@H](Cc1ccc(O)cc1)C(N)=O)[C@@H](C)CC | human 20S proteasome (latent) | peptidylglutamyl-peptide hydrolase activity, inhibitor | – | pH 8.0, 37 °C, with: Z-LLE-βNA | 1.42
Cc1cc(Cc2cc(C)cc(C(C)(C)C)c2O)c(O)c(Cc2cc(C)cc(C(C)(C)C)c2O)c1 | BACE1 | enzyme activity, inhibitor, FRET | – | pH 4.5 | 292
CC(O)c1cc(C(=O)N[C@@H](C)Cn2ccc(-c3ccc(C#N)c(Cl)c3)n2)[nH]n1 (stereo partly shown) | Solute carrier organic anion transporter family member 1B3 (SLCO1B3, Homo sapiens, UniProt Q9NPD5) | transporter uptake, inhibitor | – | – | 39.3
CC[C@@H](C(=O)Nc1ccc(C(N)=O)c(F)c1)n1cc(OC)c(-c2cc(Cl)ccc2-n2cc(C(F)(F)F)nn2)cc1=O | coagulation factor XI (Oryctolagus cuniculus, UniProt G1SSQ6) | – | – | – | 0.54
O=[N+]([O-])c1ccc(O)c(O)c1 | EGLN1 | ODDD peptide hydroxylation, inhibitor, MALDI-TOF MS | – | pH 7.00, 37.0 °C, with: 2-oxoglutarate 10 µM | 6
Nc1ccc(S(=O)(=O)Nc2ccc3c(c2)B(O)OC3)cc1 | Leucine--tRNA ligase (Staphylococcus aureus, UniProt Q2FXH2) | enzyme activity, inhibitor | – | – | 3 ± 1.2
N=C(N)c1ccc(OCCCCCOc2ccc(C(=N)N)cc2)cc1 | Grin1/Grin2a/Grin2b, channel binding site (Rattus norvegicus, UniProt P35439+Q00959+Q00960) | – | – | pH 7 | 2.68 ± 0.65
CN(C)CC(c1ccc(O)cc1)C1(O)CCCCC1 (stereo not shown) | Sodium-dependent serotonin transporter (Slc6a4, Mus musculus, UniProt Q60857, I172M) | [3H]5-HT uptake | brain synaptosomes | 10 min, pH 7.4, 37 °C, with: [3H]5-HT 100 nM | 7.9
O=C(OC(C(F)(F)F)C(F)(F)F)N1Cc2ccc(OCCN3CCCCC3)cc2C1 | Monoacylglycerol lipase ABHD6 (ABHD6, Homo sapiens, UniProt Q9BV23) | enzyme activity, inhibitor, fluorescence substrate | – | – | 0.0119 ± 0.0011
CC(=O)N[C@H]1[C@@H](O[C@H]2[C@H](O)[C@@H](O)[C@H](O[C@H]3[C@H](O)[C@@H](NC(C)=O)[C@@H](OCCCCCN)O[C@@H]3COS(=O)(=O)O)O[C@@H]2C(=O)O)O[C@H](COS(=O)(=O)O)[C@@H](O[C@@H]2O[C@@H](C(=O)O)[C@@H](O)[C@H](O)[C@H]2O)[C@@H]1O | BACE1 | enzyme activity, inhibitor, FRET | – | pH 4.5 | 94
O=c1cc(N2CCOCC2)oc2c(OCc3ccccc3)cccc12 | Phosphatidylinositol 4,5-bisphosphate 3-kinase catalytic subunit alpha isoform (PIK3CA, Homo sapiens, UniProt P42336) | enzyme activity, inhibitor | – | – | 0.77
CCOC(=O)CC[C@@H](C)[C@H]1CC[C@H]2[C@@H]3CC[C@@H]4C[C@H](OC(=O)CCCCCC(=O)O)CC[C@]4(C)[C@H]3CC[C@]12C | human 20S proteasome | chymotrypsin-like activity, inhibitor | – | with: PA28 | > 10
CSCC[C@H](NC(=O)[C@H](CC(C)C)NC(=O)[C@@H](Cc1ccccc1)NC(=O)CNC(=O)[C@@H](NC(=O)[C@H](C)NC(=O)[C@H](Cc1c[nH]c2ccccc12)NC(=O)[C@H](CCC(N)=O)NC(=O)[C@H](CC(N)=O)NC(=O)CNC(=O)[C@H](Cc1ccc(O)cc1)NC(=O)[C@H](CCCNC(=N)N)NC(=O)[C@H](CCC(N)=O)NC(=O)[C@@H]1CCC(=O)N1)C(C)C)C(N)=O | Neuromedin-B receptor (NMBR, Homo sapiens, UniProt P28336) | inositol phosphate generation, antagonist | Balb 3T3 expressing NMBR | with: neuromedin B 1 nM | > 10
O=C(Nc1nnc(SCc2cn(Cc3cc(=O)c(O)co3)nn2)s1)c1ccc(Br)cc1 | PPO3 (Agaricus bisporus, UniProt C7FF04) | inhibitor | – | – | 6.7 ± 24
Cc1ccc(O)c(O)c1 | EGLN1 | ODDD peptide hydroxylation, inhibitor, MALDI-TOF MS | – | pH 7.00, 37.0 °C, with: 2-oxoglutarate 10 µM | 4
C=C(C)CCOP(=O)(O)OP(=O)(O)OP(=O)(O)OC[C@H]1O[C@@H](n2cnc3c(N)ncnc32)[C@H](O)[C@@H]1O | Proto-oncogene tyrosine-protein kinase ROS (ROS1, Homo sapiens, UniProt P08922) | enzyme activity, inhibitor, HotSpot kinase | – | with: ATP 1 µM | 4
Cc1ccc(C(=O)Nc2ccc(S(=O)(=O)O)c3cc(S(=O)(=O)O)cc(S(=O)(=O)O)c23)cc1NC(=O)c1cccc(NC(=O)Nc2cccc(C(=O)Nc3cc(C(=O)Nc4ccc(S(=O)(=O)O)c5cc(S(=O)(=O)O)cc(S(=O)(=O)O)c45)ccc3C)c2)c1 | Malate dehydrogenase, mitochondrial (MDH2, Sus scrofa, UniProt P00346) | enzyme activity, inhibitor | – | – | > 63
Cc1ccc(-c2ccc(Cn3cccc(O)c3=S)cc2)cc1 | HDAC1 | enzyme activity, inhibitor, SAMDI mass spectrometry | – | – | > 10
CC(/C=C/c1ccc(OCC(=O)Nc2ccccc2F)cc1)=N\O | Peroxisome proliferator-activated receptor gamma (PPARG, Homo sapiens, UniProt P37231) | ligand displacement, TR-FRET | – | – | 14

Substance | target | test | test system | setting | IC50 [µM]
Cc1cccc(NC(=O)c2sc3nc4c(cc3c2N)CCCCC4)c1 | Serine/threonine-protein kinase pim-1 (PIM1, Homo sapiens, UniProt P11309) | kinase activity, inhibitor, ADP-Glo | – | – | ≤ 5.9
COC(=O)C1=C(C)NC(C)=C(C(=O)OCCN(C)Cc2ccccc2)C1c1cccc([N+](=O)[O-])c1 (stereo not shown) | Multidrug resistance-associated protein 1 (ABCC1, Homo sapiens, UniProt P33527) | efflux, inhibitor | SupT1-Vin overexpressing ABCC1 | with: DiOC2(3) 100 nM | 5.3 ± 2.9
O=C(O)c1ccccc1-n1c(/C=C/c2cccc([N+](=O)[O-])c2)nc2ccccc2c1=O | Grik2 | ion current, inhibitor, two-electrode voltage clamp | Xenopus oocytes | concanavalin A pretreatment, with: 100 µM glutamate | > 300
CC(C)c1ccc(OCC(O)Cn2c(=N)n(Cc3ccccc3)c3ccccc32)cc1 (stereo not shown) | Kir3.1/Kir3.2 | ion flux | – | – | 3.37
O=C(O)c1ccc(-n2c(/C=C/c3ccccc3[N+](=O)[O-])nc3ccccc3c2=O)cc1 | Grik2 | ion current, inhibitor, two-electrode voltage clamp | Xenopus oocytes | concanavalin A pretreatment, with: 100 µM glutamate | > 300
N=c1n(Cc2ccc(Cl)cc2)c2ccccc2n1CC(O)COc1ccc(Cl)cc1 (stereo not shown) | Kir3.1/Kir3.2 | ion flux | – | – | 3.35
CDK1/2 inhibitor III | Serine/threonine-protein kinase 24 (STK24, Homo sapiens, UniProt Q9Y6E0) | kinase activity, inhibitor | – | with: myelin basic protein 10 µM, ATP 10 µM | 0.014
O=C(O)c1ccccn1 | mushroom tyrosinase | diphenolase activity, inhibitor | – | pH 6.8, 20 °C, with: caffeic acid substrate | 3690
COc1cc(/C=C/C(=O)CC(=O)/C=C/c2ccc(O)c(OC)c2)ccc1O | mushroom tyrosinase | inhibitor | – | with: L-DOPA | > 2000
Cc1ccc(S(=O)(=O)N[C@H](CC(=O)N[C@@H](C)C(=O)NCc2cccc3ccccc23)CC(=O)NC(C)(C)C)cc1 | Proteasome component C5/PSMB8 (Homo sapiens, UniProt P20618+P28062) | chymotrypsin-like activity, inhibitor | – | with: ac-ANW-AMC | 0.014 ± 0.002
CCOc1ncc(C)c2c1[C@H](c1ccc(C#N)cc1OC)C(C(N)=O)=C(C)N2 | Broad substrate specificity ATP-binding cassette transporter ABCG2 (ABCG2, Homo sapiens, UniProt Q9UNQ0) | transport, inhibitor, Transwell transport | MDCKII expressing human ABCG2 | with: PhIP 2 µM or topotecan 2 µM | 17.4
N=c1n(Cc2ccccc2)c2ccccc2n1CC(O)COc1ccc(Cl)cc1Cl (stereo not shown) | Kir3.1/Kir3.2 | ion flux | – | – | 3.2
CC12CC3CC(C)(C1)CC(Nc1c(Nc4ccc(CN5CCC[C@H](C(=O)NCCCCCCC(=O)NO)C5)cc4F)c(=O)c1=O)(C3)C2 | Ephx2 | enzyme activity, inhibitor, fluorescence | – | – | 9.8
O=C(O)CCCOc1cccc(CNC(=O)C#Cc2cn(Cc3ccc(C(=O)O)cc3)c(=O)[nH]c2=O)c1 | Collagenase 3 (MMP13, Homo sapiens, UniProt P45452) | enzyme activity, inhibitor | – | – | 0.00578
C[C@]12C[C@@H]3C[C@](C)(C1)C[C@@](NC(=O)Nc1ccc(C(=O)N4CCC[C@H](C(=O)NCCCCCCC(=O)NO)C4)cc1Cl)(C3)C2 | Ephx2 | enzyme activity, inhibitor, fluorescence | – | – | 0.0017
C=C(C)[C@@H](CC=C(C)C)C[C@@]12C[C@@H](CC=C(C)C)C(C)(C)[C@@](CC=C(C)C)(C(=O)C(C(=O)c3ccc(O)c(O)c3)=C1O)C2=O | Histone acetyltransferase p300 (EP300, Homo sapiens, UniProt Q09472) | enzyme activity, inhibitor, mobility shift | – | – | ~60
O=C(Nc1ccc(C(=O)Nc2ccc(C(=O)Nc3ccc(S(=O)(=O)O)c4cc(S(=O)(=O)O)cc(S(=O)(=O)O)c34)cc2)cc1)Nc1ccc(C(=O)Nc2ccc(C(=O)Nc3ccc(S(=O)(=O)O)c4cc(S(=O)(=O)O)cc(S(=O)(=O)O)c34)cc2)cc1 | Histone-lysine N-methyltransferase SETD7 (SETD7, Homo sapiens, UniProt Q8WTS6) | enzyme activity, inhibitor | – | – | 1.9
C[C@]12CC3CC(Nc4c(Nc5ccc(CN6CCC[C@H](C(=O)NCCCCC(=O)NO)C6)cc5F)c(=O)c4=O)(C1)C[C@@](C)(C3)C2 | Ephx2 | enzyme activity, inhibitor, fluorescence | – | – | 1.29
O=C(Nc1ccc(S(=O)(=O)Nc2nccs2)cc1)[C@@H]1C[C@H]1c1ccccc1 | Sodium channel protein type 3 subunit alpha (SCN3A, Homo sapiens, UniProt Q9NY46) | resting-state peak current, inhibitor, patch clamp | – | – | ~18
CCC(CC)CSc1nc2c([nH]1)c(=S)n(C)c(=O)n2C | Progesterone receptor (PGR, Homo sapiens, UniProt P06401) | reporter gene, antagonist, luciferase | – | – | 2.3
CCCC(=O)N[C@@H](CCC(N)=O)C(=O)N[C@@H]1C(=O)N[C@@H](CCc2ccc(O)cc2)C(=O)N[C@H]2CC[C@@H](O)N(C2=O)[C@@H](Cc2ccccc2)C(=O)N(C)[C@@H](Cc2ccccc2)C(=O)N[C@@H](C(C)C)C(=O)O[C@@H]1C | Neutrophil elastase (ELANE, Homo sapiens, UniProt P08246) | enzyme activity, inhibitor, fluorescence | – | – | 0.83
N=C(N)c1ccc(C(=O)N2CCN(C(=O)c3cc(CN4CCN(C(=N)N)CC4)cc([N+](=O)[O-])c3)CC2)cc1 | Lysine-specific histone demethylase 1A (KDM1A, Homo sapiens, UniProt O60341) | enzyme activity, inhibitor | – | – | 5 to 10
O=C1NC2=C(C(=O)N(Cc3ccc(F)cc3)C2)C(c2ccc(O)cc2)N1 (stereo not shown) | ALPI | enzyme activity, inhibitor, absorbance | – | pH 9.5 | 4.77
O=C(O)CCC(=O)NNC(=O)c1cc2c(cn1)[nH]c1ccccc12 | EGLN1 | inhibitor, AlphaScreen | – | bimodal curve, rough estimate, with: 2 µM 2-oxoglutarate | 0.4
O=S(=O)(c1cc(C(=S)Nc2cc(F)c(F)c(F)c2)c(Cl)cc1Cl)N1CCOCC1 | Lysophosphatidic acid receptor 5 (LPAR5, Homo sapiens, UniProt Q9H1C0) | Ca2+ mobilization, antagonist | B103 | with: LPA at EC50 | > 100
CCN1/C(=C/c2ccc3ccccc3[n+]2CC)C=Cc2ccccc21 | Equilibrative nucleoside transporter 4 (SLC29A4, Homo sapiens, UniProt Q7RTT9) | transporter uptake, inhibitor, radiometric | – | pH 7.4 | 0.124
